Published values of several laboratories.
Numbered parts are unrelated; each lists some results of a single study. Positions count from the first letter of the parent shown.

Sample 1 — target: CCNE2, cyclin fold, Cln2 fusion (human); method: yeast growth competition, sequencing; sample: yeast; setting: strong parent motif; relative to: not given; reading: higher = stronger binding
Starting sequence: WEE1 docking peptide (human); HKTFRKLRLFDTP; partner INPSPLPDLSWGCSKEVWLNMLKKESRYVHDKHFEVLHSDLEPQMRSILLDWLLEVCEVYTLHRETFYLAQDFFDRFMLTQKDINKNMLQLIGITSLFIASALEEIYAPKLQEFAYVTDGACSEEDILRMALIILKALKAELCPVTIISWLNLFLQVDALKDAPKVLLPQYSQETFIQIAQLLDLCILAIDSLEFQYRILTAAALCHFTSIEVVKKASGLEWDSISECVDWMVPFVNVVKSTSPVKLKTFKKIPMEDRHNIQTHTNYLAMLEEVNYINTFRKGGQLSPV
Variant | normalised enrichment score
HKTFRKLRSFDTP [L9S] | 0.823
GKTFRKLRLFDTP [H1G] | -0.0326
HKTFRKLVLFDTP [R8V] | 0.783
HKTFRKLELFDTP [R8E] | 0.684
HKTFRKLRMFDTP [L9M] | 0.0922
VKTFRKLRLFDTP [H1V] | -0.178
HKTFVKLRLFDTP [R5V] | 0.419
HKTFRYLRLFDTP [K6Y] | 1.82
HKTFRKLMLFDTP [R8M] | 0.656
HKTFRKLRLFRTP [D11R] | 0.655
PKTFRKLRLFDTP [H1P] | 0.926
HKTFSKLRLFDTP [R5S] | 0.583
QKTFRKLRLFDTP [H1Q] | 1.48
HRTFRKLRLFDTP [K2R] | 1.03
HKTARKLRLFDTP [F4A] | 1.09
HKYFRKLRLFDTP [T3Y] | -0.741
HKTFRKLRLLDTP [F10L] | 0.446
HKTFRKLQLFDTP [R8Q] | 1.9
HKTFRGLRLFDTP [K6G] | 1.06
HKTFRKPRLFDTP [L7P] | 0.164
HKTFRWLRLFDTP [K6W] | 1.49
HKRFRKLRLFDTP [T3R] | 0.837
HKTFRKLNLFDTP [R8N] | 0.212
HKTFRKLRFFDTP [L9F] | 0.694
HKTFRKLRLFDWP [T12W] | 1.22

Sample 2 — method: protein binding microarray; molecule type: double-stranded DNA, one strand shown; sample: in vitro; tested at: not given; relative to: not given; reading: higher = stronger binding
Target: Histone acetyltransferase KAT6A, both winged helices, GST fusion (KAT6A, Homo sapiens, UniProt Q92794, residues 1-181)
Setting: 8-mer, flanks averaged, mean of 2 arrays, mostly near background
Construct (chain): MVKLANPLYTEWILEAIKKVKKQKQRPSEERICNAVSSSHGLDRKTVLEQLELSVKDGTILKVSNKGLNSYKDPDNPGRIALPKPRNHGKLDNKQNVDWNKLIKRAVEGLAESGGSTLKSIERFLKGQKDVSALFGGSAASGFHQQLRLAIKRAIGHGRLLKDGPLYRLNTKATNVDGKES
Oligonucleotide | E-score
ATCGAATG | -0.114
GAATTATC | -0.206
TCGGGCAA | 0.0623
TGAGCACA | -0.165
AAGGGTCA | -0.161
AATGCATT | -0.0639
AGCTGTCC | -0.155
CAAACCAA | -0.216
AACGGCGA | 0.307
CATGCGCC | 0.193
CTCCCCTA | -0.152
ACAGCGCT | 0.317
AATGAAGG | -0.112
GTGGAGAA | -0.115
CTCTCACC | -0.0215
GTATTAAC | 0.0729
CCCCCAGA | -0.377
AGTACTAA | -0.161
CTGCTTTC | -0.0361

Sample 3 — method: DHFR PCA, deep sequencing; sample: yeast; together with: (+)-ABA 4.8 µM; relative to: wild-type fitted maximum; reading: higher = stronger binding
Target: ABI1, truncated, D143A, DHFR fusion (Arabidopsis thaliana)
Setting: methotrexate growth selection, single substitutions
Starting sequence: PYL1, truncated, DHFR fusion (Arabidopsis thaliana); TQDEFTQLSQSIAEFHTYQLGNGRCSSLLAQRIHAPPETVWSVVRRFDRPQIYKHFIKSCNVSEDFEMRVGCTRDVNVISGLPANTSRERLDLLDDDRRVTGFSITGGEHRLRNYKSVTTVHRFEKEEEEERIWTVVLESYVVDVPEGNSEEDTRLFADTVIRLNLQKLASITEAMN; partner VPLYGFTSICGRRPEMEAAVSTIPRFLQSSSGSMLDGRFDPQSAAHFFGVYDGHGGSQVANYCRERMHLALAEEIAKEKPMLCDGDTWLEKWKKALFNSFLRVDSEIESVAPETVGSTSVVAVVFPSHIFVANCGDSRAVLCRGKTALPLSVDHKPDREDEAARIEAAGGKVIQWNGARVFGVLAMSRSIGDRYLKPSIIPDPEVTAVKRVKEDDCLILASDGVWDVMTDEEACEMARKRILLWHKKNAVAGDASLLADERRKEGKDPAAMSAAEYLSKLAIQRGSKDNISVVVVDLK
Variant | relative binding score [%]
R123D | 54.5
V43M | 42.1
I12N | -13.3
R163L | 3.34
D153H | -1.71
G23C | 25.6
L20T | 80.6
I133R | 62.3
V44H | -12
L138R | 2.98
S87M | 23.8
V143E | 3.42
S26L | -6.48
N61L | 68.2
G81P | 21.8
R90F | -3.2
W41T | 4.18

Sample 4 — method: universal PBM; molecule type: double-stranded DNA, one strand shown; sample: in vitro; tested at: not given; reading: higher = stronger binding
Target: Sal-like protein 4, full length isoform B (SALL4, Homo sapiens, UniProt Q9UJQ4-2, residues 1-616)
Setting: 8-mer, flanks averaged, mean of replicates
Construct (chain): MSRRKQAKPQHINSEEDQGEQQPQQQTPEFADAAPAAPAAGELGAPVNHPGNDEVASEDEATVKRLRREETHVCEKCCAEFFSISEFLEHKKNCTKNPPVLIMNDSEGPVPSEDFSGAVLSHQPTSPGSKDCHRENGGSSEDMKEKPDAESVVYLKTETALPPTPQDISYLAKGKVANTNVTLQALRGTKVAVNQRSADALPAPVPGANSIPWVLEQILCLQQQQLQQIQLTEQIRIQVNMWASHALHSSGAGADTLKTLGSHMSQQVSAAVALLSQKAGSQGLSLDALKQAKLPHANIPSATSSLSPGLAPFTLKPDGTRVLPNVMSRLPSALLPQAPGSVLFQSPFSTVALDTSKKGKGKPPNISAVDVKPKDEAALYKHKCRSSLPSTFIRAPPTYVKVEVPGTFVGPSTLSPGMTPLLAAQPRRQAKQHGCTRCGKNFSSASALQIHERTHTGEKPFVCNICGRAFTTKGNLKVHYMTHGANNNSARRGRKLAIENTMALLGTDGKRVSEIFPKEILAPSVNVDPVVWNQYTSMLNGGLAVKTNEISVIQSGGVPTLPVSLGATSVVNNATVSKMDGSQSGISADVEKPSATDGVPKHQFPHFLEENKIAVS
Oligonucleotide | E-score
ACATGTAG | 0.183
CCATCTCC | 0.036
CACGCGCG | -0.182
CACGGAAA | -0.0446
AGCTGCGA | -0.185
AGGGGTAA | -0.0162
CTGAGGCC | -0.289
CCCCAAGG | -0.254
ATGAGCAG | 0.0111
CCGAATAC | 0.00905
AATCTCGA | 0.097
GCGTGACA | -0.0947
CGTCTAGC | -0.105
GGACAGTA | 0.109
AATCCGCT | -0.0484
ATCACAAA | 0.2
AGATGTGG | 0.0795
AGGTTTTA | 0.0723
GTACGAAA | 0.12
CCAATCTA | -0.0217
GAGCTACA | -0.0104
AAACGCCA | -0.0669
